Results of several laboratories.
Each numbered part is a random draw from the data of one study; scales do not carry over between parts.

Block 1
Target: Prothrombin, mature alpha-thrombin (F2, Homo sapiens, UniProt P00734)
Technique: aptamer microarray, sandwich
Form: DNA with 2'F-ANA
Sample: in vitro
Tested at: 200 nM
Setting: whole 15-mer aptamer, many near background
Together with: Cy3 exosite-II aptamer, 400 nM
Reading: higher = stronger binding
Strand: GGTTGGTGTGGTTGG
| Modification | mean fluorescence intensity |
| --- | --- |
| 2'F-ANA at 1 5 6 8 10 11 12 | 51.4 a.u. |
| 2'F-ANA at 1 3 4 5 7 8 9 11 14 15 | 66.2 a.u. |
| 2'F-ANA at 1 2 3 5 8 13 14 | 46.3 a.u. |
| 2'F-ANA at 1 2 3 4 7 8 11 13 | 178 a.u. |
| 2'F-ANA at 1 2 3 4 8 9 10 13 | 52.2 a.u. |

Block 2
Target: Histone acetyltransferase KAT6A, both winged helices, GST fusion (KAT6A, Homo sapiens, UniProt Q92794, residues 1-181)
Technique: protein binding microarray
Form: double-stranded DNA, one strand shown
Sample: in vitro
Tested at: not given
Setting: 8-mer, flanks averaged, mean of 2 arrays, mostly near background
Relative to: not given
Reading: higher = stronger binding
Residues (chain): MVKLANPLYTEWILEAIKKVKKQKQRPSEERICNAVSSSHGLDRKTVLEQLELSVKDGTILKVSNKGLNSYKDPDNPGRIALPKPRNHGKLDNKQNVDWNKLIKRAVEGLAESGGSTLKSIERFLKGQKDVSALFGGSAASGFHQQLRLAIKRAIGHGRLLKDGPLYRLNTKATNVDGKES
| Strand | E-score |
| --- | --- |
| TTATGAAA | -0.0609 |
| ATCAGCGG | 0.215 |
| CCCTAATA | -0.265 |
| CACCGCGA | 0.255 |

Block 3
Target: Interferon regulatory factor 5, full length, phosphomimetic (IRF5, Homo sapiens, UniProt Q13568-2, residues 1-514, S451D/S453D/S456D/S462D)
Technique: protein-binding microarray
Form: double-stranded DNA, one strand shown
Sample: in vitro
Tested at: 940 nM top
Setting: 60-bp whole probe
Together with: salmon DNA 0.4 mg/ml
Relative to: random background probes
Reading: higher = stronger binding
All sequences stand within: GCCTAGCAC … GTCTTGATTCGCTTGACGCTGCTG
| Strand | fitted relative affinity [z-score] |
| --- | --- |
| GACGGGATCGGTTTCGGGACGTGCTAG | 3.91 |
| TTAGATATCGGTCTCGATTAGTGCTAG | 2.61 |
| ATTTTAATCACATATACACTGGTGCTA | 0.415 |
| TTAGATATCGTGACTGGATTAGTGCTA | -0.364 |
| TCAGCTCTGATGTTGGGACTGTGCTAG | -0.674 |

Further values, each from its own experiment
| Molecule | target | test | test system | conditions | how to read | measurement | result |
| --- | --- | --- | --- | --- | --- | --- | --- |
| PhoQ, residues 284 288 289 292 302 303 AGCYAI | PhoP, residues 12 14 15 18 19 FWNTL (Escherichia coli, UniProt P23836) | Sort-seq, measured: YFP reporter | E. coli | PhoQ-PhoP variant library, together with: 10 µM Mg2+ | relative to: high Mg2+ state, higher = stronger signaling | fold induction | 2.82 |

Some of these lines once more (block 2):
| Strand | E-score |
| --- | --- |
| CCCTAATA | -0.265 |
| CACCGCGA | 0.255 |
